# Experimental data collected from several papers.
# Compare with care: the assays were run in different laboratories. Numbers after ± are the reported error.
Compound,test,test system,setting,how to read,endpoint,value
COC(=O)/C=C/C(=O)c1ccc(OC)cc1,LC-MS/MS,rat plasma,"2.5 ng/mL, 12 h, room temperature, short-term storage",,recovery,101 ± 3.47%
C=C1C(=O)O[C@@H]2C[C@H](C)[C@@H]3C[C@H](OCc4cn(Cc5ccccc5)nn4)[C@H](OCc4cn(Cc5ccccc5)nn4)[C@@]3(C)C[C@H]12,propidium iodide flow cytometry,"primary splenocytes, BALB/c mouse","48 h, 10% fetal calf serum",,CC50,229 ± 4 µg/mL
CC(C)c1cnc(-c2cc(Cl)ccc2F)cc1Nc1ccncc1C(=O)NC(CO)CO,measured: intracranial tumour haemorrhage,human patients,"oral, dose not given, grade 2",,patients with related SAE,0%
O=C(Nc1nccs1)C(c1cc(F)ccc1O)N1Cc2ccccc2C1=O (stereo not shown),,mouse plasma,"1500 ng/mL, time not given, -30 °C, 3 freeze-thaw cycles, high QC",,recovery,100 ± 1.1%
Cc1ccccc1/N=N/c1ccc(/N=N/c2c(O)ccc3ccccc23)c(C)c1,,"Sprague-Dawley rats both sexes, whole blood","oral, 50 mg/kg",,elimination rate constant,8.14e-05 s⁻¹
NS(=O)(=O)c1ccc(N2N=C(C(F)(F)F)C(O)C2c2ccc(F)cc2F)cc1 (stereo not shown),substrate,human liver microsomes,"20 µM, 0 to 30 min, pH 7.4",,metabolite formation rate,189 pmol/min/mg
CC(=O)N([O-])CCCCCNC(=O)CCC(=O)N([O-])CCCCCNC(=O)CCC(=O)N([O-])CCCCCN.[89Zr+4],,"mouse, liver",24 h,,tracer uptake,0.22 %ID/g
C=CC(=O)Nc1cc(Nc2nccc(-c3cn(C)c4ccccc34)n2)c(OC)cc1N(C)CCNC,UHPLC-MS/MS,"human, NSCLC patients, finger-prick dried blood spot","oral, 80 mg daily, steady state, at least 14 d treatment",,median trough concentration,18 ng/mL
Cc1ccc(OCC(=O)N(Cc2cccs2)c2ccn[nH]2)cc1,,"beagle dog, male, plasma","oral gavage, 100 mg/kg",,Tmax,100 min
CC(C)[C@H](NC(=O)CNC(=O)[C@H](CCC(N)=O)NC(=O)[C@H](C)N)C(=O)O,LC-MS/MS,"human, male, plasma","intravenous, 10 mg/kg three times daily, day 2, first dose, 10 min infusion, geometric mean",,clearance,683 mL/min/kg
COc1cc(NC(C)=O)c2c(c1O)-c1c(OC)c(OC)cc3c1C(C2)N(C)CC3 (stereo not shown),,rat brain homogenate,"50 µg/mL, 4 h, room temperature, short-term storage",,remaining compound,92.8 ± 2.4%
Cn1cc(C(N)=O)c(NC2C3CC4CC2CC(OS(=O)(=O)O)(C4)C3)c2ccnc1-2 (stereo not shown),,"Japanese adults, mild hepatic impairment, plasma","oral, 150 mg single dose",,AUC(0-t),876 ng·h/mL
CN1CCC[C@]1(C)/C=C/S(=O)(=O)NC(=O)Nc1c2c(cc3c1CCC3)CCC2,,"human, plasma","oral, 100 mg twice daily, day 1, multiple ascending dose",,AUC(0-24),145000 ng·h/mL
Nc1ncnc(NCC(CCO)CCNC(=O)C(O)CO)c1-c1ccc(Oc2ccccc2)cc1 (stereo not shown),,"male humans, faeces","oral, 75 mg, single metabolite",reference: dose,metabolite excreted in faeces,1.31 to 2.96%
Oc1c(Br)cc(Br)c2nc3cc(F)ccc3nc12,,human red blood cells,"200 µM, 1 h, pH 7.2, 37 °C",,hemolysis,1.6%
CCCC[C@H](NC(=O)CNC(=O)CNC(=O)CN1CCN(CC(=O)O)CCN(CC(=O)O)CC1)C(=O)N[C@H]1CC(=O)NCCCC[C@@H](C(N)=O)NC(=O)[C@H](Cc2c[nH]c3ccccc23)NC(=O)[C@H](CCCNC(=N)N)NC(=O)[C@@H](Cc2ccccc2)NC(=O)[C@H](Cc2c[nH]cn2)NC1=O [gallium-67 labelled],,"female C57 mice, B16/F1 melanoma","intravenous, 0.037 MBq, 4 h",reference: tumour over liver,tumour to tissue ratio,33.4
NCC(=O)N1CCC[C@H]1C(=O)N1C[C@H](O)C[C@H]1C(=O)O,potentiometric titration,,"40 °C, MA complex, together with: Fe(III)",,log beta,17.6
CCCC[C@H](NC(=O)CNC(=O)CNC(=O)CN1CCN(CC(=O)O)CCN(CC(=O)O)CCN(CC(=O)O)CC1)C(=O)N[C@H]1CC(=O)NCCCC[C@@H](C(N)=O)NC(=O)[C@H](Cc2c[nH]c3ccccc23)NC(=O)[C@H](CCCNC(=N)N)NC(=O)[C@@H](Cc2ccccc2)NC(=O)[C@H](Cc2c[nH]cn2)NC1=O [copper-64 labelled],,"C57 mouse B16/F1 melanoma, skin",4 h,,tissue uptake,1.27 ± 0.47 %ID/g
Cc1nc2cccc(OCC(C)(C)C(=O)NC(C)C)c2c(N)c1C(=O)[O-].[Na+],,"male Sprague-Dawley rat, plasma","oral gavage, 30 mg/kg single dose",,dose-normalised Cmax,1.28 ng/mL/mg/kg
O=C(N[c-]1cccc1)OCc1ccc(F)cc1.[Fe+2].c1cc[cH-]c1,cyclic and differential pulse voltammetry,acetonitrile,23 °C,reference: ferrocene/ferrocenium,E1/2,-76 mV
CC(=O)N([O-])CCCCCNC(=O)CCC(=O)N([O-])CCCCCNC(=O)CCC(=O)N([O-])CCCCCN.[89Zr+4],radio-iTLC,aqueous buffer,"3 h, pH 5.0, 37 °C, EDTA challenge, together with: 100-fold excess EDTA",,intact complex,27.3 ± 3.3%
COCCOCCOCCOCCOCCOCCOCCOCCC(=O)NCCCc1cc2cc3nc(cc4[nH]c(cc5nc(c(OC)c1[nH]2)C(=O)C5(C)C)cc4CCc1ccc(C(=O)O)cc1)CC3(C)C,,DMF,room temperature,,Qy/B absorption intensity ratio,0.4
C=C(c1ncc(C(=O)O)cn1)c1cc2c(cc1C)C(C)(C)CCC2(C)C,,"Sprague-Dawley rat, male","oral, 100 mg/kg, 2 h, sesame oil vehicle",,blood triglycerides,130 ± 50.8 mg/dL
CC(C)(Sc1ccncc1-c1ccc(C#N)c2ccccc12)C(=O)OC1OC(C(=O)O)C(O)C(O)C1O (stereo not shown),,urine,"oral, 15 mg, 72 h, mild renal impairment",reference: dose,fraction excreted unchanged,11.2%
O=C([O-])CN(CCN(CC(=O)[O-])Cc1cc(CCC(=O)NCCCCCC(=O)NCCCC[C@H](NC(=O)N[C@@H](CCC(=O)O)C(=O)O)C(=O)O)ccc1O)Cc1cc(CCC(=O)O)ccc1[O-].[68Ga+3],PET/CT,"human, normal liver",,,SUVmean,~4.5
C#CCOc1ccc(/C=C2\SC(=O)N(CC(=O)NCc3ccccc3)C2=O)cc1,inverse Kirkwood-Buff integrals,binary solvent mixture,"concentration not given, 298.15 K, mole fraction x1 0.80",,correlation volume,5380 cm³/mol
[11CH3]c1ccc2nc(C3CCC3)n(-c3ccc4[nH]ncc4c3)c2n1,,"human male, kidneys",,,absorbed radiation dose,5.6 µSv/MBq
CCCCCCCC(=O)OC[C@H](NC(=O)[C@H](CO)NC(=O)CN)C(=O)N[C@@H](Cc1ccccc1)C(=O)N[C@@H](CC(C)C)C(=O)N[C@@H](CO)C(=O)N1CCC[C@H]1C(=O)N[C@@H](CCC(=O)O)C(=O)N[C@@H](Cc1cnc[nH]1)C(=O)N[C@@H](CCC(N)=O)C(=O)N[C@@H](CCCNC(=N)N)C(=O)N[C@H](C(=O)N[C@@H](CCC(N)=O)C(=O)N[C@@H](CCC(N)=O)C(=O)N[C@@H](CCCNC(=N)N)C(=O)N[C@@H](CCCCN)C(=O)N[C@@H](CCC(=O)O)C(=O)N[C@@H](CO)C(=O)N[C@@H](CCCCN)C(=O)N[C@@H](CCCCN)C(=O)N1CCC[C@H]1C(=O)N1CCC[C@H]1C(=O)N[C@@H](C)C(=O)N[C@@H](CCCCN)C(=O)N[C@@H](CC(C)C)C(=O)N[C@@H](CCC(N)=O)C(=O)N1CCC[C@H]1C(=O)N[C@@H](CCCNC(=N)N)C(=O)O)C(C)C,beat-to-beat plethysmography,human chronic HFrEF patients,"intravenous infusion, 0.1 µg/kg/min, after 60 min infusion",,blood pressure dBP,56.5 ± 8.7 mm Hg
CC1=CC(C)=[N+]2C1=Cc1ccc(CCC(=O)N3CCN(C(=O)c4cc(Cc5n[nH]c(=O)c6ccccc56)ccc4F)CC3)n1[B-]2(F)F,,"athymic nude NU/J mouse, whole blood","intravenous, 2.5 mg/kg",,alpha half-life,1.2 min
O=C([O-])CN1CCN(CC(=O)[O-])CCN(C(CCC(=O)NC(Cc2c[nH]c3ccc(O)cc23)C(=O)NCCc2c[nH]c3ccc(O)cc23)C(=O)O)CCN(CC(=O)[O-])CC1.[Gd+3] (stereo not shown),,PBS,"40 °C, 0.47 T",,relaxivity r1,5.6 mM⁻¹ s⁻¹
[11CH3]Oc1ccc(Cc2cn[nH]c2)nc1-c1cccc([N+](=O)[O-])c1,,"human, arterial plasma","dose not given, 60 to 120 min",,decline of parent plasma concentration,71%
N=C(N)NCCC[C@@H]1NC(=O)[C@H](Cc2c[nH]c3ccccc23)NC(=O)[C@@H](CC2CCCCC2)NC(=O)[C@@H]2CCCN2C(=O)[C@@H](NC(=O)CCc2ccccc2)CCCNC1=O,,"C57BL/6J mouse, plasma","intraperitoneal, 1 mg/kg, single dose",reference: intravenous AUC,bioavailability,60.3%
Cn1ccn(N=Cc2ccccc2SSc2ccccc2C=Nn2ccn(C)c2=S)c1=S,optical absorption spectra,PBS,"pH 7.40, 0.15% DMSO",,hydrolytic stability period,≥ 8 h
O=C(Cc1ccccc1)Nc1nc2ccccc2n1Cc1ccccc1,ultrafiltration,rat plasma,"30 min, 37 °C",,fraction unbound,39.6%
Cn1c(=O)oc2ccc(-c3ccc(CC(C#N)NC(=O)C4CNCCCO4)c(F)c3)cc21 (stereo not shown),measured: blood triglycerides increased,human,"60 mg single dose, fasted",,subjects with TEAE,33.3%
CC(C)(C)C(=O)O,,,,,pKa,4.79
CC(C)[C@H](NC(=O)[C@@H]1CCCN1C(=O)[C@H](CCCNC(=N)N)NC(=O)[C@H](CS)NC(=O)[C@H](Cc1c[nH]c2ccccc12)NC(=O)[C@H](CCCNC(=N)N)NC(=O)[C@@H](Cc1ccccc1)NC(=O)[C@H](Cc1c[nH]cn1)NC(=O)[C@H](CCC(=O)O)NC(=O)[C@H](CS)NC(=O)[C@H](CS)NC(=O)CNC(=O)[C@@H]1CC(=O)N[C@@H](CCCNC(=N)N)C(=O)NCC(=O)N[C@@H](CC(=O)O)C(=O)N[C@H](Cc2ccc(O)cc2)C(=O)N1)C(N)=O [technetium-99m labelled],,"C57 mouse, female, B16/F1 melanoma","intravenous, 0.037 MBq, 2 h",reference: tumour over kidneys,tumour to tissue ratio,0.55
NC12CNCCNCC(NCc3ccc(CNC(=O)CCCC(=O)NCc4ccc(-c5nncnn5)cc4)cc3)(CNCCNC1)CNCCNC2.[64Cu+2],OLINDA dosimetry,upper large intestine wall,"pretargeting, 48-h interval",,mean absorbed dose,0.0382 rad/mCi
CCCC[C@@H]1NC(=O)[C@@H](NC(=O)[C@H](CCC(=O)O)NC(=O)CNC(=O)CN2CCN(CC(=O)O)CCN(CC(=O)O)CCN(CC(=O)O)CC2)CCCCNC(=O)C[C@@H](C(N)=O)NC(=O)[C@H](C(C)C)NC(=O)[C@@H]2CCCN2C(=O)[C@H](CCCNC(=N)N)NC(=O)CNC(=O)[C@H](Cc2c[nH]c3ccccc23)NC(=O)[C@H](CCCNC(=N)N)NC(=O)[C@@H](Cc2ccccc2)NC(=O)[C@H](Cc2c[nH]cn2)NC(=O)[C@H](CCC(=O)O)NC1=O [gallium-67 labelled],,C57 mice with B16/F1 melanoma,"intravenous, 0.037 MBq/mouse, 4 h",reference: tumour over kidney,tumour to kidney ratio,0.36
O=C(NCCCN(CCCCN(CCCNC(=O)c1cccc(=O)n1[O-])C(=O)c1cccc(=O)n1[O-])C(=O)c1cccc(=O)n1[O-])c1cccc(=O)n1[O-].[89Zr+4],,human serum,"7 days, 37 °C",,intact complex,98.8%
CCn1c(=O)n(CCO)c(=O)c2c1nc(/C=C/c1ccc(OC)c(OC)c1)n2C,,"healthy humans, plasma","oral, 40 mg",,metabolite to parent AUClast ratio,0.0461
Cc1ccc(-c2ccc(-c3cc4sccc4o3)cn2)nc1,TCSPC,MeOH,,,fluorescence lifetime,1.82 ns
Cc1ccc(C(=O)N[C@@H](CO)CC(C)C)cc1C,LC-MS,human liver microsomes,"10 µM of parent drug, 10 min, pH 7.4, together with: NADPH",reference: parent drug at time zero,metabolite peak area,0.5%

# Repeated from above:
Compound,test,test system,setting,how to read,endpoint,value
Cc1ccccc1/N=N/c1ccc(/N=N/c2c(O)ccc3ccccc23)c(C)c1,,"Sprague-Dawley rats both sexes, whole blood","oral, 50 mg/kg",,elimination rate constant,8.14e-05 s⁻¹
CC(C)c1cnc(-c2cc(Cl)ccc2F)cc1Nc1ccncc1C(=O)NC(CO)CO,measured: intracranial tumour haemorrhage,human patients,"oral, dose not given, grade 2",,patients with related SAE,0%
O=C(NCCCN(CCCCN(CCCNC(=O)c1cccc(=O)n1[O-])C(=O)c1cccc(=O)n1[O-])C(=O)c1cccc(=O)n1[O-])c1cccc(=O)n1[O-].[89Zr+4],,human serum,"7 days, 37 °C",,intact complex,98.8%
N=C(N)NCCC[C@@H]1NC(=O)[C@H](Cc2c[nH]c3ccccc23)NC(=O)[C@@H](CC2CCCCC2)NC(=O)[C@@H]2CCCN2C(=O)[C@@H](NC(=O)CCc2ccccc2)CCCNC1=O,,"C57BL/6J mouse, plasma","intraperitoneal, 1 mg/kg, single dose",reference: intravenous AUC,bioavailability,60.3%
CC(C)(C)C(=O)O,,,,,pKa,4.79
CC(=O)N([O-])CCCCCNC(=O)CCC(=O)N([O-])CCCCCNC(=O)CCC(=O)N([O-])CCCCCN.[89Zr+4],,"mouse, liver",24 h,,tracer uptake,0.22 %ID/g
